Published values from different studies.
Compare with care: the assays were run in different laboratories. Several values in a cell are separate wells, animals, samples, runs or records. ± gives the spread as reported.
Chain of UniProt O96017 (whole entry, looked up): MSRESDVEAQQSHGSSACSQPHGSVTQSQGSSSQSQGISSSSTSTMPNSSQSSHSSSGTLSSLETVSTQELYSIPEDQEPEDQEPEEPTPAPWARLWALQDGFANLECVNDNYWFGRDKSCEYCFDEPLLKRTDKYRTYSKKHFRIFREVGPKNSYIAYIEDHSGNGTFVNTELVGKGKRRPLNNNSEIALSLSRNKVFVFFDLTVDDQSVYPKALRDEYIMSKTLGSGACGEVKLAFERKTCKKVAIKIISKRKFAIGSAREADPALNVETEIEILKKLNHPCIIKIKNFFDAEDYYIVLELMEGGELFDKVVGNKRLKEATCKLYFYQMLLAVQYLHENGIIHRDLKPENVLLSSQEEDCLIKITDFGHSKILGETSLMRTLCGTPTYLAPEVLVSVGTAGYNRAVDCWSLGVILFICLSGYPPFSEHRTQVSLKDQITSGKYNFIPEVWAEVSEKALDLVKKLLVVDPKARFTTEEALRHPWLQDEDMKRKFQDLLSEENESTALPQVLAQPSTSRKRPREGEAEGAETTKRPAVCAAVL
Chain of UniProt P00519 (whole entry, looked up): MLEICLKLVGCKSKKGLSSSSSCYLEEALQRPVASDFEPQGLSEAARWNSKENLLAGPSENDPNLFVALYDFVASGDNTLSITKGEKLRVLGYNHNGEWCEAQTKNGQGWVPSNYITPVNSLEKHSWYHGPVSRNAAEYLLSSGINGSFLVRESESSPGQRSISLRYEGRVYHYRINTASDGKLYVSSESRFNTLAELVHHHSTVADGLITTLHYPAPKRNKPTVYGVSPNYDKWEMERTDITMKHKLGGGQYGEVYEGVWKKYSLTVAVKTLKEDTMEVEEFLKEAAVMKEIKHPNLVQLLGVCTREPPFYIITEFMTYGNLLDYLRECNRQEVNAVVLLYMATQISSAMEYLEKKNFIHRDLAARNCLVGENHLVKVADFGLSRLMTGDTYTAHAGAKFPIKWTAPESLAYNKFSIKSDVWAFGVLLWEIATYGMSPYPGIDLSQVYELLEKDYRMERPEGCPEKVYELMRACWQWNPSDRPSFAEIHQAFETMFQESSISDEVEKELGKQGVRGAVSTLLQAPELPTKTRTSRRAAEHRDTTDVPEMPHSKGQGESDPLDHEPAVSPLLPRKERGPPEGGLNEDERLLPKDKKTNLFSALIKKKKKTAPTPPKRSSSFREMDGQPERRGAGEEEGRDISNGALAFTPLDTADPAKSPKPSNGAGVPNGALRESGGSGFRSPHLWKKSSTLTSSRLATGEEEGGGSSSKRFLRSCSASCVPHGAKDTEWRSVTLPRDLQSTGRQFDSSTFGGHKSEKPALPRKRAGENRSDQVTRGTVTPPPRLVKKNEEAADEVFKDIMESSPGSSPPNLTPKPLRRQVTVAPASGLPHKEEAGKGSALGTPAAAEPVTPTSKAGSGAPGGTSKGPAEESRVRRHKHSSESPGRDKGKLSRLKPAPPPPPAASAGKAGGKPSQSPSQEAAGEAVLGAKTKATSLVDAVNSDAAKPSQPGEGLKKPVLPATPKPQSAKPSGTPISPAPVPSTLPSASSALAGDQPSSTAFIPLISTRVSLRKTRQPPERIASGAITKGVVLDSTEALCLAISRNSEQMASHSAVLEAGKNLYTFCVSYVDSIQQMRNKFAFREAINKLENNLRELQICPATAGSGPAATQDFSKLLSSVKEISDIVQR

Cc1cc(C(=O)Nc2nc3cccc(C)c3n2[C@H]2CCCCN(C(=O)/C=C/CN(C)C)C2)ccn1
EC50 fold shift (Trypanosoma brucei; cell growth, Alamar Blue; 2T1 overexpressing Tb927.10.7780; relative to: parental 2T1): 0.62 fold and 1.27 fold

[Cl-].[Cl-].[Ru+2].c1ccc(-c2ccccn2)nc1.c1ccc(-c2ccccn2)nc1.c1ccc2cc3nc4c5cccnc5c5ncccc5c4nc3cc2c1
EC50 (SK-MEL-28; cell growth or viability, resazurin; dark): 120 µM

COc1ccccc1-c1n[nH]c2nc(NC3CCN(C(=O)Cc4ccc(F)cc4F)CC3)ncc12
relative abundance (bead binding, competition bead pull-down, measured: LINJ.25.1850; Leishmania donovani axenic amastigote extract; 10 µM; relative to: vehicle): 0.9

O=C(C[Se]C(=O)c1cc2ccccc2o1)Nc1cccc(C(F)(F)F)c1
CC50 (NCI60 ovarian subpanel; cytotoxicity, inhibitor; five-dose): 7.55 µM

C#CCN1C(=O)C(CC#C)(C(=O)OCC)Oc2ccccc21 (stereo not shown)
inhibition (HEK293T; cytotoxicity, CCK-8; 3.13 µM, 72 h): 0.08 ± 0.28%

CC(C)CC(C(=O)N1CC2(CC1C#N)C(=O)Nc1ccccc12)N(C)C(=O)c1cc2c(F)cc(F)c(F)c2[nH]1 (stereo not shown)
inhibition (Human coronavirus 229E; cytopathic effect; MRC5; 40 nM): 108%

O=C(C[Se]C(=O)c1ccco1)Nc1cccc(C(F)(F)F)c1
mean growth percent (NCI60 ovarian subpanel; cell growth; 10 µM, 48 h, one-dose): -14.6%

COc1ccc(NC(=O)c2ccc3[nH]c(-c4ccc(N(C)C)cc4)nc3c2)cn1
caspase-3/7 activity (HCT-116; Caspase-Glo; 8 µM, 16 h, unit not given, added: ISRIB 400 nM pre-incubation; relative to: DMSO): 6.12 and 4.74 and 4.4

O=C1C=CC(=O)c2ccccc21
selectivity index (MOLT-3; XTT; relative to: IC50 MRC-5 over IC50 MOLT-3): 7.21

CC(C)[C@H](NC(=O)[C@H](CCCNC(=N)N)NC(=O)[C@@H]1CCCN1C(=O)[C@@H](NC(=O)[C@H](C)NC(=O)[C@H](Cc1ccc(O)cc1)NC(=O)[C@H](CCC(N)=O)NC(=O)[C@H](CCCCN)NC(=O)[C@H](CCCNC(=N)N)NC(=O)[C@@H]1CCCN1C(=O)[C@H](CCC(=O)O)NC(=O)[C@@H](NC(=O)[C@H](C)N)[C@@H](C)O)[C@@H](C)O)C(=O)N[C@@H](Cc1ccccc1)C(=O)N[C@@H](Cc1c[nH]c2ccccc12)C(=O)N[C@H](C(=O)N[C@@H](CC(=O)O)C(=O)N[C@@H](C)C(=O)N1CCC[C@H]1C(=O)NCC(=O)NCCOCCOCCOCCOCCOCCOCCOCCOCCOCCOCCOCCOCCC(=O)N[C@@H](CS)C(N)=O)[C@@H](C)O
selectivity ratio (PANC-1 pancreatic cancer; cell binding, phage binding, measured: output/input phage; 10 min, 37 °C; relative to: control phage): 9 ± 3

CC(C)(C)C(=O)OCOP(=O)(OCOC(=O)C(C)(C)C)C1CCCN(O)C1=O (stereo not shown)
log LC50 (OVCAR-8): > -4 log M

CC[C@H](C)[C@H](NC(=O)[C@H](C)NC(=O)CNC(=O)[C@H](Cc1ccccc1)NC(=O)[C@H](CC(N)=O)NC(=O)[C@H](CC(N)=O)NC(=O)[C@H](CO)NC(=O)[C@H](CO)NC(=O)[C@H](Cc1c[nH]cn1)NC(=O)[C@@H](NC(=O)[C@H](CC(C)C)NC(=O)[C@H](Cc1ccccc1)NC(=O)[C@H](CC(N)=O)NC(=O)[C@H](C)NC(=O)[C@H](CC(C)C)NC(=O)[C@H](CCCNC(=N)N)NC(=O)[C@H](CCC(N)=O)NC(=O)[C@@H](NC(=O)[C@H](C)NC(=O)[C@@H]1CSSC[C@H](NC(=O)[C@@H](N)CCCCN)C(=O)N[C@@H](CC(N)=O)C(=O)N[C@@H]([C@@H](C)O)C(=O)N[C@@H](C)C(=O)N[C@@H]([C@@H](C)O)C(=O)N1)[C@@H](C)O)C(C)C)C(=O)N[C@@H](CC(C)C)C(=O)N[C@@H](CO)C(=O)N[C@@H](CO)C(=O)N[C@H](C(=O)N[C@@H](CC(N)=O)C(=O)N[C@H](C(=O)NCC(=O)N[C@@H](CO)C(=O)N[C@@H](CC(N)=O)C(=O)N[C@H](C(=O)N[C@@H](Cc1ccc(O)cc1)C(N)=O)[C@@H](C)O)C(C)C)[C@@H](C)O
nuclear translocation lag (RIN-m5F; ELISA): ~4 h

COc1ccccc1-c1ccncc1C(=O)Nc1nnc(OCc2ccc(Cl)cc2)s1
colony survival (HCT116 BRCA2-/-; 0.125 µM, average of 3 runs; relative to: untreated): 79.9%

CC(C)C[C@H](NC(=O)[C@H](CC(=O)O)NC(=O)CNC(=O)[C@@H](N)CCCNC(=N)N)C(=O)N[C@@H](C)C(=O)N[C@H](C(=O)N[C@@H](CC(C)C)C(=O)N[C@@H](CCCNC(=N)N)C(=O)N[C@@H](CCC(N)=O)C(=O)N[C@@H](CC(C)C)C(=O)N[C@@H](C)C(=O)N[C@@H](CCC(N)=O)C(=O)N[C@@H](CCC(=O)O)C(=O)N[C@@H](CC(=O)O)C(=O)NCC(=O)N[C@H](C(=O)N[C@H](C(=O)NCC(=O)N[C@H](C(=O)N[C@@H](CCCNC(=N)N)C(=O)NCCOCCOCCOCCOCCOCCOCCOCCOCCOCCOCCOCCOCCC(=O)N[C@@H](CS)C(N)=O)C(C)C)C(C)C)C(C)C)[C@@H](C)O
selectivity ratio (HCC78; phage binding; relative to: targeting over control phage): 95 ± 21

CC(C)CC(O)(CC(C)C)c1cn(C(=O)N2CCCC2)nn1
protein level (mouse T-cells; SILAC proteomics, measured: Efhd2; 1 nM, 6 h, single peptides, unit not given; relative to: DMSO): 0.89 and 1.09

O=C1NC(=O)c2c1c1cc(F)c[n+]3c1c1c2c2cc(O)ccc2[n]1[Ru-4]312([N]=C=S)[S+]3CC[S+]1CC[S+]2CC3 (stereo not shown)
remaining activity (ABL1 (Homo sapiens, UniProt P00519); enzyme activity; 100 nM, human enzyme, added: 10 µM ATP; relative to: untreated): 96%

O=C(C[Se]C(=O)c1ccccc1Nc1cccc(C(F)(F)F)c1)Nc1cccc(C(F)(F)F)c1
CC50 (NCI60 prostate subpanel (PC-3, DU-145); cytotoxicity, inhibitor; five-dose): 7.39 µM

Cc1cc(Oc2nc(N3CC[C@@H](c4ccncc4)C3)ncc2F)[nH]n1
IC50 (NCI-H82; cell proliferation; lung cancer): 74.1 µM

NC(=S)N/N=C/c1ccc(OCc2cccc(F)c2)cc1
catalase activity (OD450) (IMR-32; 400 µg/mL, 24 h; higher = more activity): 0.246 a.u.

C=CCN1C(=O)C(CC=C)(C(=O)OCC)Oc2cc(F)ccc21 (stereo not shown)
inhibition (HEK293T; cytotoxicity, CCK-8; 1.56 µM, 72 h): 0.06 ± 0.43%

O=C1NC2(CC2)COc2ncc(F)cc2[C@H]2COCCN2c2ccn3ncc1c3n2
organ-to-brain weight ratio (Sprague-Dawley rat, female, spleen; oral, 20 mg/kg/day, 4 weeks, end of treatment): 58.9 ± 19.3%

O=C(O)c1ccc(-c2nc(-c3ccccc3Cl)c3sccn23)cc1
fold change (human CD34+ hematopoietic stem cells; megakaryocyte differentiation, flow cytometry, measured: CD41a; 10 µM, day 7, added: TPO; relative to: control): 1.09 fold and 1.12 fold and 1.06 fold and 1.1 fold and 1.04 fold

CC1CCC2C(C)C(OC(=O)CCC(=O)N3CCC(Nc4ccc(S(=O)(=O)NC(=O)c5ccc(N6CCN(CC7=C(c8ccc(Cl)cc8)CC(C)(C)CC7)CC6)cc5Oc5cnc6[nH]ccc6c5)cc4[N+](=O)[O-])CC3)OC3OC4(C)CCC1C32OO4 (stereo not shown)
early apoptotic cells (THP-1; annexin V/PI flow cytometry, measured: annexin V+/PI-; 0.4 µM, 24 h): 55.8%

Cc1c(Cl)cccc1Nc1ccccc1C(=O)[Se]CC(=O)Nc1cccc(C(F)(F)F)c1
CC50 (NCI60 prostate subpanel (PC-3, DU-145); cytotoxicity, inhibitor; five-dose): 5.03 µM

CS(C)(=O)=Nc1ccc(-c2ccc(-c3nc4cc(O[C@@H]5CO[C@H]6[C@@H]5OC[C@H]6O)[nH]c4cc3F)cc2)cc1
inhibition (MET (Homo sapiens, UniProt P08581); enzyme activity, inhibitor; 10 µM): -6%

CSCC[C@H](NC(=O)[C@@H](NC(=O)[C@H](CCC(N)=O)NC(=O)[C@H](CO)NC(=O)[C@@H](N)C(C)C)[C@@H](C)O)C(=O)N[C@@H](CCCNC(=N)N)C(=O)N[C@@H](CCC(N)=O)C(=O)N[C@H](C(=O)N[C@@H](C)C(=O)N[C@H](C(=O)N1CCC[C@H]1C(=O)N[C@@H](CC(C)C)C(=O)N[C@@H](CC(C)C)C(=O)N[C@@H](Cc1c[nH]c2ccccc12)C(=O)N[C@@H](Cc1ccccc1)C(=O)N[C@@H](Cc1c[nH]c2ccccc12)C(=O)N[C@H](C(=O)NCC(=O)N[C@@H](CO)C(=O)N[C@@H](CC(C)C)C(=O)NCCOCCOCCOCCOCCOCCOCCOCCOCCOCCOCCOCCOCCC(=O)N[C@@H](CS)C(N)=O)[C@@H](C)O)C(C)C)[C@@H](C)O
selectivity ratio (H1648; phage binding; 10 min, 37 °C; relative to: control phage): 1.4 ± 0.22

N=C(N)NCCC[C@@H]1NC(=O)[C@H](CCCCNC(=O)CCC(NC(=S)Nc2ccc(CC3CN(CC(=O)O)CCN(CC(=O)O)CCN(CC(=O)O)CCN3CC(=O)O)cc2)C(=O)NCCCC[C@@H]2NC(=O)[C@@H](Cc3ccc(O)cc3)NC(=O)[C@H](CC(=O)O)NC(=O)CNC(=O)[C@H](CCCNC(=N)N)NC2=O)NC(=O)[C@@H](Cc2ccc(O)cc2)NC(=O)[C@H](CC(=O)O)NC(=O)CNC1=O (stereo partly shown) [scandium-44 labelled]
tissue uptake (PET imaging ROI; female athymic nude mice, U-87 MG xenograft, muscle; intravenous, 0.5 h): 0.6 ± 0.13 %ID/g

CC(=O)NCSC[C@H](NC(=O)[C@@H]1CCCN1C(=O)[C@H](C)NC(=O)[C@@H](NC(=O)CNC(=O)[C@@H](NC(=O)[C@H](Cc1c[nH]c2ccccc12)NC(=O)[C@H](C)NC(=O)CNC(=O)[C@H](CO)NC(=O)[C@H](C)NC(=O)[C@@H]1CCCN1C(=O)[C@H](Cc1c[nH]c2ccccc12)NC(=O)[C@H](C)NC(=O)[C@H](C)NC(=O)[C@@H](N)Cc1ccc(O)cc1)[C@@H](C)O)[C@@H](C)O)C(=O)N[C@@H](CO)C(=O)N[C@@H](C)C(=O)NCC(=O)N[C@H](C(=O)NCCOCCOCCOCCOCCOCCOCCOCCOCCOCCOCCOCCOCCC(=O)N[C@@H](CS)C(N)=O)[C@@H](C)O
selectivity ratio (H322; phage binding; 10 min, 37 °C; relative to: control phage): 10 ± 3.8

O=C(C[Se]C(=O)c1cccnc1Nc1cccc(C(F)(F)F)c1)Nc1cccc(C(F)(F)F)c1
CC50 (NCI60 prostate subpanel (PC-3, DU-145); cytotoxicity, inhibitor; five-dose): 6.88 µM

CN(C)[C@H]1C[C@@]23CC[C@@]4(O2)C(=CC[C@]2(C)[C@@H](c5ccc6ccncc6c5)CC[C@H]24)C=C3[C@@H](O)[C@@H]1O
inhibition (CHEK2 (Homo sapiens, UniProt O96017); ATP probe labelling, inhibitor, KiNativ profiling; 0.1 µM): -6.2%

O=C(C[Se]C(=O)c1ccccc1)Nc1cccc(C(F)(F)F)c1
mean growth percent (NCI60 renal subpanel; cell growth; 10 µM, 48 h, one-dose): -77.2%

CCOC(=O)C1(Cc2ccccc2)Oc2cc(F)ccc2N(Cc2ccccc2)C1=O (stereo not shown)
inhibition (HEK293T; cytotoxicity, CCK-8; 3.13 µM, 72 h): 0.15 ± 0.3%

O=C(C[Se]C(=O)c1cccs1)Nc1cccc(C(F)(F)F)c1
mean growth percent (NCI60 prostate subpanel (PC-3, DU-145); cell growth; 10 µM, 48 h, one-dose): -85.3%

Cc1cccc(-c2cccc(C)n2)n1.Cc1cccc(-c2cccc(C)n2)n1.F[P-](F)(F)(F)(F)F.F[P-](F)(F)(F)(F)F.[Ru+2].c1ccc2c(-c3nc4c5cccnc5c5ncccc5c4[nH]3)cccc2c1
EC50 (SK-MEL-28; cell viability; dark, 1% O2): 107 ± 8 µM

Some of these lines once more:
O=C(C[Se]C(=O)c1cccs1)Nc1cccc(C(F)(F)F)c1
mean growth percent (NCI60 prostate subpanel (PC-3, DU-145); cell growth; 10 µM, 48 h, one-dose): -85.3%

O=C1C=CC(=O)c2ccccc21
selectivity index (MOLT-3; XTT; relative to: IC50 MRC-5 over IC50 MOLT-3): 7.21
